Results from different studies.
Parts stem from different laboratories: compare values within a part only. Several values in a cell are separate wells, animals, samples, runs or records.
Chain of UniProt Q9P289 (whole entry, looked up): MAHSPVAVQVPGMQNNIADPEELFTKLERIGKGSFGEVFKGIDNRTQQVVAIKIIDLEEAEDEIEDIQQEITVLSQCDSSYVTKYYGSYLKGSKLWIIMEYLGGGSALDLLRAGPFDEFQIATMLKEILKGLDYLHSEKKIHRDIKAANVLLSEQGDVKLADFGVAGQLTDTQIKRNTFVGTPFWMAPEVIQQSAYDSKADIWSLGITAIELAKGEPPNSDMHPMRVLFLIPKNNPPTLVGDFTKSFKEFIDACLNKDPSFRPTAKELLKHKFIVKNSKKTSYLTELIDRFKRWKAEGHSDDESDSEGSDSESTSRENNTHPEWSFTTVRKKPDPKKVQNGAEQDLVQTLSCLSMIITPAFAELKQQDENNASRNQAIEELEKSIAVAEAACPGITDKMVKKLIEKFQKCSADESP
Chain of UniProt P10721 (whole entry, unmodified, looked up): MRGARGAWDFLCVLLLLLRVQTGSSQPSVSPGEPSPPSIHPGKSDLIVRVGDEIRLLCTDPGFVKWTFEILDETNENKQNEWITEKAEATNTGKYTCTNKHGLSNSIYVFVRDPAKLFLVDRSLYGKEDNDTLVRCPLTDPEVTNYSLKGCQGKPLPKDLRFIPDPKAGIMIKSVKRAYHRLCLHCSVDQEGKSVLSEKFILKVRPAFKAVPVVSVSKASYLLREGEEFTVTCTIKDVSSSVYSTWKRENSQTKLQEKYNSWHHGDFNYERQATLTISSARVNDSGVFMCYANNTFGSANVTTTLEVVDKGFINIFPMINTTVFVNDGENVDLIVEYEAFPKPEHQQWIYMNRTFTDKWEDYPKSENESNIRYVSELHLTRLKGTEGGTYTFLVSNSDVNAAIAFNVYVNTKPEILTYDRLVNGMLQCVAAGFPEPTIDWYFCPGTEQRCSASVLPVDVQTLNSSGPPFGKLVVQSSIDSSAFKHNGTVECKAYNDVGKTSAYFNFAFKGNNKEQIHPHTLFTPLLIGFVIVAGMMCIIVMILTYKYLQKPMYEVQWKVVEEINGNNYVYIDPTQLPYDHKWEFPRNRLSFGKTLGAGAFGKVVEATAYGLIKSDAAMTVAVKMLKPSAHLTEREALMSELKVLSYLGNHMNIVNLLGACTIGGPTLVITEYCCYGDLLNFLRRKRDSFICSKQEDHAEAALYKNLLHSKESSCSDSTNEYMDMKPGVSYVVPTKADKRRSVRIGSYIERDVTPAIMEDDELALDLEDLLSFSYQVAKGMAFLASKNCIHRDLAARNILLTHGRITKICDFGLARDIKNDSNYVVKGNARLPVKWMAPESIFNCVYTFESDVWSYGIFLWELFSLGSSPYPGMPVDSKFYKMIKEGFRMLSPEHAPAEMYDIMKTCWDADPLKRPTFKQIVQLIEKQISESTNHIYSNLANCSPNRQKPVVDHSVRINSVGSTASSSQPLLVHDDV
Chain of UniProt P23443 (whole entry, looked up): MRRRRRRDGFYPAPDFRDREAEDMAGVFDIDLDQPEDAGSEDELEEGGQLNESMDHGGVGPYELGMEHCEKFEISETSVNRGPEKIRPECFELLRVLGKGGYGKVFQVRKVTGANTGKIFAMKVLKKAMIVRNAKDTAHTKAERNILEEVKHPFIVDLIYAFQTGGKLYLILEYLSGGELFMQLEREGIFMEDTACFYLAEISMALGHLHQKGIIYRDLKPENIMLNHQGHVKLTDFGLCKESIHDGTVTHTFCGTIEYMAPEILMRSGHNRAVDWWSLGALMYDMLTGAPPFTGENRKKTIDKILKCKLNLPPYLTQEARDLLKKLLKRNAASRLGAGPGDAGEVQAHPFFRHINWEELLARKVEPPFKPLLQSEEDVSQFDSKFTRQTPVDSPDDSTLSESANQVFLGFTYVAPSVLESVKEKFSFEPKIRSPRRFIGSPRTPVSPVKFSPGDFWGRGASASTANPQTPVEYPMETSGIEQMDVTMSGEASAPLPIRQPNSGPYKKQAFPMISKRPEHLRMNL
Chain of UniProt O75582 (whole entry, looked up): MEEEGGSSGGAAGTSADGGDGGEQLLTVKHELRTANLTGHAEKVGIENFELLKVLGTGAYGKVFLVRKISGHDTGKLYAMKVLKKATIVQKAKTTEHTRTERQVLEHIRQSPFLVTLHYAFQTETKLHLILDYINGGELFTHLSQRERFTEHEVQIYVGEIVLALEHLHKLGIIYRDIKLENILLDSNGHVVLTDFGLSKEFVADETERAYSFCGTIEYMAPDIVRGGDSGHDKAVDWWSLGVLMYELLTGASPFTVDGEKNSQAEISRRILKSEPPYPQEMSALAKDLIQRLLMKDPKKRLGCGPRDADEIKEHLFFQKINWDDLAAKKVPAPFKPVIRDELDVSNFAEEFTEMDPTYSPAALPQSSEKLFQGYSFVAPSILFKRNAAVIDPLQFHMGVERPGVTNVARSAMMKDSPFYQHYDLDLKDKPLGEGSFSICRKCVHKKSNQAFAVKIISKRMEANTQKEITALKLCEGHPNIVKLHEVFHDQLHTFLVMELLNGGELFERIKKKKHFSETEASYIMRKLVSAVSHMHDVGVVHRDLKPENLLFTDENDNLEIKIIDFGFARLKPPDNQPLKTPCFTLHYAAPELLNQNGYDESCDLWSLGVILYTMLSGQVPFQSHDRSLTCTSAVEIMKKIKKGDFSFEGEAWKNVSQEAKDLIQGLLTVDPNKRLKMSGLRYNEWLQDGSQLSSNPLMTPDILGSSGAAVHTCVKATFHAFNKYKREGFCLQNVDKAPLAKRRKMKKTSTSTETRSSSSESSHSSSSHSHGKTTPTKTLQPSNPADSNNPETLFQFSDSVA
Chain of UniProt P80192 (whole entry, looked up): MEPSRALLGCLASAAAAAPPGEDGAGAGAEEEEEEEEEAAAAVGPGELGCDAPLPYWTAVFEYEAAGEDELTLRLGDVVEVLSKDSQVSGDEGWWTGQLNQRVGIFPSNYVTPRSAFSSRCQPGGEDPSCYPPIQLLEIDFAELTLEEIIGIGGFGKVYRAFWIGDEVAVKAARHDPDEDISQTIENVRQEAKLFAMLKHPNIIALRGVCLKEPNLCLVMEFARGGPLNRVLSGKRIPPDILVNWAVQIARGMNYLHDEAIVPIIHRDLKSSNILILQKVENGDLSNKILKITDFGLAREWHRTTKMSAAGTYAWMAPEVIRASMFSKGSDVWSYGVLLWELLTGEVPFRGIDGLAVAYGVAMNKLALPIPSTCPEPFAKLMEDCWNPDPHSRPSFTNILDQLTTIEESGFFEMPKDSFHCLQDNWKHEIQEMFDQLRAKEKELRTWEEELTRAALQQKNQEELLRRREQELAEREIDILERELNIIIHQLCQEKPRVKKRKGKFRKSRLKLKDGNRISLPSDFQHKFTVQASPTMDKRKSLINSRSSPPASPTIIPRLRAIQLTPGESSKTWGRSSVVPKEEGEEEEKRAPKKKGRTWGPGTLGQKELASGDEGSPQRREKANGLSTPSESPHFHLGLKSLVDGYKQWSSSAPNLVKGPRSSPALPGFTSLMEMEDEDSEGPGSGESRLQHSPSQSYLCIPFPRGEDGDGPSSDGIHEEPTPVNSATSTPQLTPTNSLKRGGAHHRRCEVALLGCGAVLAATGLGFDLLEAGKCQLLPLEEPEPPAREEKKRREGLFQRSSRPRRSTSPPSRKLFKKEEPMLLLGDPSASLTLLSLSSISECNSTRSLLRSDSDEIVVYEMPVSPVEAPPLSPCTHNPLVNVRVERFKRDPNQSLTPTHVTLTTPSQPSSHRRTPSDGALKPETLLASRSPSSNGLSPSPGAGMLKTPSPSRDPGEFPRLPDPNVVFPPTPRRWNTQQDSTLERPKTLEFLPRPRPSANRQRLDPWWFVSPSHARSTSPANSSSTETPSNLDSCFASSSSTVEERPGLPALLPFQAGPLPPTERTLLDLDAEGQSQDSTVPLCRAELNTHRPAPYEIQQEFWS
Chain of UniProt P51812 (whole entry, looked up): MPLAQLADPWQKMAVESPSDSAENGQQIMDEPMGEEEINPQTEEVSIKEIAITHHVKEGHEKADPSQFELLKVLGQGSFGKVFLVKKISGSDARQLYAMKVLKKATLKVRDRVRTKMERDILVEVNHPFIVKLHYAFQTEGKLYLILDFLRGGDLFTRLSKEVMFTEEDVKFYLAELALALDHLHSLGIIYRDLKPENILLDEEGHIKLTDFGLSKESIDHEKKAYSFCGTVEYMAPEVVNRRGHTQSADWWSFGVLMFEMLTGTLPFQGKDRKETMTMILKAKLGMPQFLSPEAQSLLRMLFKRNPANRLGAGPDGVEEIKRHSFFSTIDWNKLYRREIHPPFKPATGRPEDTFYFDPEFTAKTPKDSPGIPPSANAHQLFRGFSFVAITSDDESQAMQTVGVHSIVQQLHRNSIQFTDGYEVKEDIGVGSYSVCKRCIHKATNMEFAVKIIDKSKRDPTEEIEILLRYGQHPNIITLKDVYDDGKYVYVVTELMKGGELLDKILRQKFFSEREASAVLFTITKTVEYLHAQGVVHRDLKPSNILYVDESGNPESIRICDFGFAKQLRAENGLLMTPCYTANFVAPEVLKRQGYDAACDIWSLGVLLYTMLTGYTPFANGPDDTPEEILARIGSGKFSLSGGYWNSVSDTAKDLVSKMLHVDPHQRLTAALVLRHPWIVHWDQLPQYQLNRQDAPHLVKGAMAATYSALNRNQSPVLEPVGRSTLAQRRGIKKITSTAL
Chain of UniProt Q6PHR2 (whole entry, looked up): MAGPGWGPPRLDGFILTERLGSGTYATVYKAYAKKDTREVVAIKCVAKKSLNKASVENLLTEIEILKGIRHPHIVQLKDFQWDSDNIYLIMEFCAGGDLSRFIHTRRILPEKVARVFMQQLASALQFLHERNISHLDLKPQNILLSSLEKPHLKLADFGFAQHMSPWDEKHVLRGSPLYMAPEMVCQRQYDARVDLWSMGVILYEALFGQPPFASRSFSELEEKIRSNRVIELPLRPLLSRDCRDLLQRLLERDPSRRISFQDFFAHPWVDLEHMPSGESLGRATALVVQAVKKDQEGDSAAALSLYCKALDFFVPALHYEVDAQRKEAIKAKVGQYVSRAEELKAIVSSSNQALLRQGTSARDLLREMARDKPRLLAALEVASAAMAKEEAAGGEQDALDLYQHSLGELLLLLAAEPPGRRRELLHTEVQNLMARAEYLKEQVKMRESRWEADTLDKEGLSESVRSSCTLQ

Series 1
SMILES: COc1ccc2c(c1)O[C@H](c1ccc(OC)c(OC)c1)C[C@@H]2NC(=O)C1(c2ccc3c(c2)OC(F)(F)O3)CC1
Observed: cell-free assay
Method: competition with immobilised ligand
Concentration: 1 µM
Quantity: remaining binding
Epidermal growth factor receptor (EGFR, Homo sapiens, UniProt P00533, del746-750): 64%
Ribosomal protein S6 kinase alpha-5, N-terminal kinase domain (RPS6KA5, Homo sapiens, UniProt O75582): 91%
Discoidin domain-containing receptor 2 (DDR2, Homo sapiens, UniProt Q16832): 94%
Tyrosine-protein kinase ABL1, non-phosphorylated (ABL1, Homo sapiens, UniProt P00519, T315I): 93%
Epidermal growth factor receptor (EGFR, Homo sapiens, UniProt P00533, L861Q): 100%
Ribosomal protein S6 kinase beta-1 (RPS6KB1, Homo sapiens, UniProt P23443): 91%
Receptor-type tyrosine-protein kinase FLT3 (FLT3, Homo sapiens, UniProt P36888, D835V): 92%
Serine/threonine-protein kinase PLK1 (PLK1, Homo sapiens, UniProt P53350): 83%
Mitogen-activated protein kinase kinase kinase 9 (MAP3K9, Homo sapiens, UniProt P80192): 93%
Ephrin type-A receptor 8 (EPHA8, Homo sapiens, UniProt P29322): 100%
Ribosomal protein S6 kinase alpha-6, N-terminal kinase domain (RPS6KA6, Homo sapiens, UniProt Q9UK32): 87%
Serine/threonine-protein kinase ULK3 (ULK3, Homo sapiens, UniProt Q6PHR2): 90%
Mast/stem cell growth factor receptor Kit (KIT, Homo sapiens, UniProt P10721, V559D/V654A): 100%
Ribosomal protein S6 kinase alpha-3, N-terminal kinase domain (RPS6KA3, Homo sapiens, UniProt P51812): 74%
Serine/threonine-protein kinase 26 (STK26, Homo sapiens, UniProt Q9P289): 84%

Series 2
Structure (SMILES): COc1ccc(-c2c(Nc3ccccn3)[nH]c3c(C4=CCCCC4)c(-c4ccccc4)nn3c2=O)cc1
Host: human patients
Medium: plasma
Quantity: median concentration
measured: methionine; 200 mg once daily, 8 h: 105000 ng/mL
measured: methionine; 200 mg once daily, 6 h: 117000 ng/mL
measured: methionine; 150 mg once daily, 8 h: 95900 ng/mL
measured: S-adenosylmethionine; 100 mg once daily, 6 h: 14.8 ng/mL
measured: methionine; 150 mg once daily, 2 h: 96600 ng/mL

Series 3
SMILES: CC(=O)N[C@@H](Cc1c[nH]c2ccccc12)C(=O)N[C@@H](CCC(=O)C=[N+]=[N-])C(=O)OC(C)C
Medium: EL4 tumour
Dose: dose not given
Reference: vehicle
Quantity: log2 fold change
metabolomics, measured: 2,6-dihydroxybenzoic acid; mouse: -0.128
measured: cysteine sulfinic acid; Mus musculus: 0.087
measured: fumarate; mouse, EL4 tumour-bearing: -0.706
measured: 1-methylguanidine; mouse, EL4 tumour-bearing: 2.6
measured: argininosuccinate; mouse, EL4 tumour-bearing: -1.02

Series 4
SMILES: COc1cc(C(=O)OCCCN2CCCN(CCCOC(=O)c3cc(OC)c(OC)c(OC)c3)CC2)cc(OC)c1OC
Method: electrocardiography
Quantity: heart rate
mice; intraperitoneal, 10 mg/kg, 60 min: 550 beats/min and 590 beats/min and 577 beats/min
mice; intravenous, 30 mg/kg, 10 min: 420 beats/min and 245 beats/min and 423 beats/min and 315 beats/min and 361 beats/min and 452 beats/min
mouse; intraperitoneal, 10 mg/kg, 10 min: 562 beats/min and 578 beats/min and 570 beats/min

Series 5
Compound: CN1CCC[C@H]1COc1nc2c(c(N3CCN(S(C)(=O)=O)[C@@H](CC#N)C3)n1)CCN(c1cccc3cccc(Cl)c13)C2
Cell line: HEK293
Method: CellTiter-Glo
Reference: vehicle
Quantity: viability
156 nM: 102% and 103%
40 µM: 0.11% and 0.59% and 0.06%
5 µM: 26.3% and 29.3% and 27.6%
1.25 µM: 79.6% and 69.3% and 68.7%

A few entries again (series 3):
measured: argininosuccinate; mouse, EL4 tumour-bearing: -1.02
metabolomics, measured: 2,6-dihydroxybenzoic acid; mouse: -0.128
measured: fumarate; mouse, EL4 tumour-bearing: -0.706
measured: cysteine sulfinic acid; Mus musculus: 0.087
